Measurements of several laboratories.
Every numbered part comes from another study and shows a few of its results, in no order.
Sequence of UniProt P00519 (whole entry, unmodified, looked up): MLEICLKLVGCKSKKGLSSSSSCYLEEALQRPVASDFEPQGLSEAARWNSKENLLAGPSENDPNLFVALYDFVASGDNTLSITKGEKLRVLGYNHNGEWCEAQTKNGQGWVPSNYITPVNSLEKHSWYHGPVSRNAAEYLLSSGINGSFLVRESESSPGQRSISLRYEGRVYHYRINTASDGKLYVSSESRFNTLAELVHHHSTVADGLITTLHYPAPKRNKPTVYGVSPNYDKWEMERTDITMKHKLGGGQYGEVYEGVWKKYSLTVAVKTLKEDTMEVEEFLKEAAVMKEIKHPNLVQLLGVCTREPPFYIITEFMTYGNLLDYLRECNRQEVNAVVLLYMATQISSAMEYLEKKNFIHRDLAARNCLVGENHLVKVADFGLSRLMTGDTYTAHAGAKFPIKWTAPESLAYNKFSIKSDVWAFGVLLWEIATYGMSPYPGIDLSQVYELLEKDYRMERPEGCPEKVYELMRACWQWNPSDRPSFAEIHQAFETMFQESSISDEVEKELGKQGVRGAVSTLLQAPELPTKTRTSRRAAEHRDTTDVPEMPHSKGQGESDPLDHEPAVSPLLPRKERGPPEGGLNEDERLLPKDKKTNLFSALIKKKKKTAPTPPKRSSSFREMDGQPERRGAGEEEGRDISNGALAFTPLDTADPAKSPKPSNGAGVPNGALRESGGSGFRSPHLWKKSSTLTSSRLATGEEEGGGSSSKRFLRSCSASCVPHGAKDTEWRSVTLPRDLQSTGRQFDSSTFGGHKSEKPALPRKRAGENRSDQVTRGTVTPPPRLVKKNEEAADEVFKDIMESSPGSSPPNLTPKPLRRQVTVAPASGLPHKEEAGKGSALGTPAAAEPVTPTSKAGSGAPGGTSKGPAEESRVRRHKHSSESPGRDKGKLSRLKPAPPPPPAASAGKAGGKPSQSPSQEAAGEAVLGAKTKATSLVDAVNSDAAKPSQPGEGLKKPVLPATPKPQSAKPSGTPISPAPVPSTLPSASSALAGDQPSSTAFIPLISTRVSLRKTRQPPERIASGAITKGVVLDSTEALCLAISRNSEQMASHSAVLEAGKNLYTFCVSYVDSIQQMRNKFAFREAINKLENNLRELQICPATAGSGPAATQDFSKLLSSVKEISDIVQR
Sequence of UniProt P07948 (whole entry, looked up): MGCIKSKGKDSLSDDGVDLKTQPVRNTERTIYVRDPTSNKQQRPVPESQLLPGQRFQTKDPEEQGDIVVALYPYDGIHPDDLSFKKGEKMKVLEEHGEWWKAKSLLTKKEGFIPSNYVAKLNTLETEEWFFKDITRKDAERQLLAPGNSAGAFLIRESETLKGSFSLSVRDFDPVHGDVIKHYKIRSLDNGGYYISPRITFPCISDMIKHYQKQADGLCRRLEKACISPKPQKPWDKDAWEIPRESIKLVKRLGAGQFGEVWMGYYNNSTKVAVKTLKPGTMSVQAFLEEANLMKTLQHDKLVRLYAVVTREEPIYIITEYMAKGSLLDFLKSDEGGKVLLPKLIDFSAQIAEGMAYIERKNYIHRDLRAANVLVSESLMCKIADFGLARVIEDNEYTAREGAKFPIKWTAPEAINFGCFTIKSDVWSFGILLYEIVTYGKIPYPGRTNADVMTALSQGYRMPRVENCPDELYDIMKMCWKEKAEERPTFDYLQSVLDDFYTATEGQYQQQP
Sequence of UniProt O00141 (whole entry, looked up): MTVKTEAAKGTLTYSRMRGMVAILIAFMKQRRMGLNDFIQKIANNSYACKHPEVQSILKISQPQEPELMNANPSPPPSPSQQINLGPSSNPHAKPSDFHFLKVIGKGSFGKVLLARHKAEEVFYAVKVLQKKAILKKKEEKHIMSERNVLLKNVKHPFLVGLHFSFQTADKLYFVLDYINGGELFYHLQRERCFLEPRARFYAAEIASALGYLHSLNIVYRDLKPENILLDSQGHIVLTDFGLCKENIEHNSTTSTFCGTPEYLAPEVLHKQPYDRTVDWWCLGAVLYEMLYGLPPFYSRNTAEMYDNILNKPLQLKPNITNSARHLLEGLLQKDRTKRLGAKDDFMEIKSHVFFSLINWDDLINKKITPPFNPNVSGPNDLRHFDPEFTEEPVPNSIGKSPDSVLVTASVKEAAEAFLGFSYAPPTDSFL
Sequence of UniProt Q9UIK4 (whole entry, looked up): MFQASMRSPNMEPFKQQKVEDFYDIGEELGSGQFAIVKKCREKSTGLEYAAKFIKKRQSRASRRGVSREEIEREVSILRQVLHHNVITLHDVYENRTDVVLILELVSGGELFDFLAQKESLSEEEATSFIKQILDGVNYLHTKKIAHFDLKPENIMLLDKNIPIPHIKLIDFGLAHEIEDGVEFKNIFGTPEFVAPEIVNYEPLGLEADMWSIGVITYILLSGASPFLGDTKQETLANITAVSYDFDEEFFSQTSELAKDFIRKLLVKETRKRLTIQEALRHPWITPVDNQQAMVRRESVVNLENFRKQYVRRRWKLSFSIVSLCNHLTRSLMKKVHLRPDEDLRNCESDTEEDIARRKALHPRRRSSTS
Sequence of UniProt Q9BYT3 (whole entry, looked up): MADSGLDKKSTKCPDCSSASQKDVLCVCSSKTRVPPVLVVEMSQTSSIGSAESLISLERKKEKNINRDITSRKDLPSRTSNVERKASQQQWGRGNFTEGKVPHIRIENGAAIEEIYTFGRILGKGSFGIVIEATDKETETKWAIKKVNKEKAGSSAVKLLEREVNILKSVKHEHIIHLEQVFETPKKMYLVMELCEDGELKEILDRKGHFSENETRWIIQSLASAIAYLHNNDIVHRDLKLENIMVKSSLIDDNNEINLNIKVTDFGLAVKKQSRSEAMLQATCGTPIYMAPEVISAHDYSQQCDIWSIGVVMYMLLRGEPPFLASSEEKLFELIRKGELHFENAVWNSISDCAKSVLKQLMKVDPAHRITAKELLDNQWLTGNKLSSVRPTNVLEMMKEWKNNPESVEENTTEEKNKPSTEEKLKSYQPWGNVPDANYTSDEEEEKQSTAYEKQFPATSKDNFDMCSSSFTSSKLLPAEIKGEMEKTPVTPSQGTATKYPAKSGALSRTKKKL
Sequence of UniProt P48736 (whole entry, looked up): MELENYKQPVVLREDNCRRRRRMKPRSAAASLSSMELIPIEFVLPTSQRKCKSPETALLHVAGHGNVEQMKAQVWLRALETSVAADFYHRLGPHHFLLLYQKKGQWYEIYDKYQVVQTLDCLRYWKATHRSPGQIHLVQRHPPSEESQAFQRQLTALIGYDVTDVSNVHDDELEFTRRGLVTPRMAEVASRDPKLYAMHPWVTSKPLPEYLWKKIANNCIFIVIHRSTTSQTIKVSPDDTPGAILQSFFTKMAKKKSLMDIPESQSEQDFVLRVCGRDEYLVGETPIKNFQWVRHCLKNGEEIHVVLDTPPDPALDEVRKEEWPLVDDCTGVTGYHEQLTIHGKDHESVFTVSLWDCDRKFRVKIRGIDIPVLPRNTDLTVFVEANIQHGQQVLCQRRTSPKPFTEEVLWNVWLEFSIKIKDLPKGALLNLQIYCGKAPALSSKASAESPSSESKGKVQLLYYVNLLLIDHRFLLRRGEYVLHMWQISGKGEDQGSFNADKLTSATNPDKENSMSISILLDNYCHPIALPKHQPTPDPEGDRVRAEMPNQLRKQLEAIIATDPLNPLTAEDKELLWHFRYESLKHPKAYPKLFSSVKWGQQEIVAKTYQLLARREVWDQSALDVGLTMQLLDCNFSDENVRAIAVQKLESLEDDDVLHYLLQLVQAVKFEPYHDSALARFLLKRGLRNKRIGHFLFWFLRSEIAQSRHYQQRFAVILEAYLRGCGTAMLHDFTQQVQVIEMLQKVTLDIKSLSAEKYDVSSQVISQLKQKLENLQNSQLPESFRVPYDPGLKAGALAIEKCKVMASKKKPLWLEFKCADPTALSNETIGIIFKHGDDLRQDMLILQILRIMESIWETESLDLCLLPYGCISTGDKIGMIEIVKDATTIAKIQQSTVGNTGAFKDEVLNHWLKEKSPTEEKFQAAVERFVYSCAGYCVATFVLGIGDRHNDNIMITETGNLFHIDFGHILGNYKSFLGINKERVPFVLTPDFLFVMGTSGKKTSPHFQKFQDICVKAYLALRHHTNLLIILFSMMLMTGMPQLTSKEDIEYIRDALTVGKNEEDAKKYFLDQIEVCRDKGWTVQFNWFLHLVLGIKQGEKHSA
Sequence of UniProt P36897 (whole entry, looked up): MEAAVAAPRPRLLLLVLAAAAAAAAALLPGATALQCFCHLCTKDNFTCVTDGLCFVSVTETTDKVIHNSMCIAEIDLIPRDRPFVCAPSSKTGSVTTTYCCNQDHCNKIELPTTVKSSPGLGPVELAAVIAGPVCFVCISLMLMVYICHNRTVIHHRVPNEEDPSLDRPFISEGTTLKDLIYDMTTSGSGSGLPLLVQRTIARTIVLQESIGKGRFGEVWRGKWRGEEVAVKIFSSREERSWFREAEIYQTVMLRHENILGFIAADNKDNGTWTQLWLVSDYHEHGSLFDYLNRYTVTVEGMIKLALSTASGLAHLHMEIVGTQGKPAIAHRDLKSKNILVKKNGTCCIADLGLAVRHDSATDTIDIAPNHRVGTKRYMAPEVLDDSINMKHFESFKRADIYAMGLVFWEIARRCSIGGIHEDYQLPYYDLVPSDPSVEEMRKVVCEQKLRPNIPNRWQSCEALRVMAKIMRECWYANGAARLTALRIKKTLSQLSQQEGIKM

Set 1
Target: Sal-like protein 4, full length isoform B (SALL4, Homo sapiens, UniProt Q9UJQ4-2, residues 1-616)
Method: universal PBM
Molecule type: double-stranded DNA, one strand shown
Medium: in vitro
Tested at: not given
Notes: 8-mer, flanks averaged, mean of replicates
Direction: higher = stronger binding
Sequence | E-score
CAATAACG | 0.308
GTGAAGAA | 0.0518
ATGTGGCC | -0.158
ATAAAGCG | 0.254
AAGACGCC | -0.11
CCCTTTTC | 0.0265
GCGAACAC | -0.22
GACGACAA | 0.00895

Set 2
SMILES: c1ccc(N2CCN(Cc3nc4ccccc4[nH]3)CC2)nc1
Method: competition with immobilised ligand
Tested at: 1 µM
target | observed | remaining binding [%]
PAK3 (Homo sapiens, UniProt O75914) | cell-free assay | 100
SGK1 (Homo sapiens, UniProt O00141) | binding | 100
WNK2 (Homo sapiens, UniProt Q9Y3S1) | binding | 100
STK33 (Homo sapiens, UniProt Q9BYT3) | binding | 97
KIT (Homo sapiens, UniProt P10721, V559D) | binding | 100
EGFR (Homo sapiens, UniProt P00533) | cell-free assay | 99
WNK3 (Homo sapiens, UniProt Q9BYP7) | binding | 100
MKNK2 (Homo sapiens, UniProt Q9HBH9) | binding | 100
FLT3 (Homo sapiens, UniProt P36888, D835V/ITD) | binding | 100
PIK3CG (Homo sapiens, UniProt P48736) | cell-free assay | 100
DAPK2 (Homo sapiens, UniProt Q9UIK4) | binding | 86
Tyrosine-protein kinase ABL1, phosphorylated (ABL1, Homo sapiens, UniProt P00519, E255K) | binding | 100
RIPK1 (Homo sapiens, UniProt Q13546) | binding | 100
PRKAA2 (Homo sapiens, UniProt P54646) | cell-free assay | 100
PHKG1 (Homo sapiens, UniProt Q16816) | cell-free assay | 100

Set 3
Target: Centromere-binding protein 1, full length, His-tagged (CBF1, Saccharomyces cerevisiae, UniProt P17106, residues 1-351)
Sequence of UniProt P17106 (whole entry, looked up): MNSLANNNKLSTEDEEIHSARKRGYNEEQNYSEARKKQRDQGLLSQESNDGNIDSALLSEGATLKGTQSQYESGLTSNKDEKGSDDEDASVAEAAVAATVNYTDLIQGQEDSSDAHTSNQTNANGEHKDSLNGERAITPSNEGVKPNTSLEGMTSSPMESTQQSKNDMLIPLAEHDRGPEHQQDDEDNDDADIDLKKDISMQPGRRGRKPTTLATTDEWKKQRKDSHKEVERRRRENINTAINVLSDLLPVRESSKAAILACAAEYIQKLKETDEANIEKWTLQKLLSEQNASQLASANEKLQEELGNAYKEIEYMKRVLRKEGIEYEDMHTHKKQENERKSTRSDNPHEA
Method: competition protein-binding microarray
Molecule type: double-stranded DNA, one strand shown
Medium: in vitro
Tested at: 2 µM
Notes: whole 60-bp probe, lowest competitor level
With: Pho4 competitor, 0.05 µM
Direction: higher = stronger binding
Shared flanks, not repeated: … GTCTTGATTCGCTTGACGCTGCTG
Sequence | fluorescence intensity [a.u.]
AGTTCAACAAAACCAAACATGACAATACCACTTATG | 79.8
CACTATCCATCCTGGCACGTGTTCCTGGCCACCTTG | 1810
TGTGTTGGATCTCAACACGGGGTACCTCCGTATAAG | 116
CGTCCTAGTGATTGTCACTCGACTTCCATGAGGAAG | 77
AATGCCAGATTCGTTTTCGTGACAAACTTTAGCATA | 80.9
ATTTTTCTTTCGAGTCACGTCACCGCTACTAATGTT | 221
CTGCGCTGCGGCCAGCCCGTGAGACCACCCGAGGGA | 63.1
CCTTTTCAATGAAAGCACGTTACTGAATTCAGAGAA | 289

Set 4
Structure (SMILES): CCCC(=O)Oc1ccc2[nH]c(C(=O)c3cc4ccccc4[nH]3)cc2c1
Observed: enzyme activity
Mode: inhibitor
Tested at: 0.5 µM
Reference: control
target | remaining activity [%]
PRKACA (Homo sapiens, UniProt P17612) | 96.6
Tyrosine-protein kinase Lyn, isoform B (LYN, Homo sapiens, UniProt P07948) | 103
OXSR1 (Homo sapiens, UniProt O95747) | 92.4
TGFBR1 (Homo sapiens, UniProt P36897) | 101
Cyclin-dependent kinase 4, with cyclin D1 (CDK4, Homo sapiens, UniProt P11802) | 106

Some of these lines once more (set 2):
target | observed | remaining binding [%]
Tyrosine-protein kinase ABL1, phosphorylated (ABL1, Homo sapiens, UniProt P00519, E255K) | binding | 100
RIPK1 (Homo sapiens, UniProt Q13546) | binding | 100
PRKAA2 (Homo sapiens, UniProt P54646) | cell-free assay | 100
PHKG1 (Homo sapiens, UniProt Q16816) | cell-free assay | 100
